Published values collected from several papers.
A part holds a random share of what one study measured. Changes are numbered by the printed parent chain.

Study 1 — target: CCNF, cyclin fold, Cln2 fusion (human); method: yeast growth competition, sequencing; sample: yeast; notes: strong parent motif; relative to: not given; reading: higher = stronger binding
Starting sequence: viral docking peptide; TSVRRALFTGGSD; partner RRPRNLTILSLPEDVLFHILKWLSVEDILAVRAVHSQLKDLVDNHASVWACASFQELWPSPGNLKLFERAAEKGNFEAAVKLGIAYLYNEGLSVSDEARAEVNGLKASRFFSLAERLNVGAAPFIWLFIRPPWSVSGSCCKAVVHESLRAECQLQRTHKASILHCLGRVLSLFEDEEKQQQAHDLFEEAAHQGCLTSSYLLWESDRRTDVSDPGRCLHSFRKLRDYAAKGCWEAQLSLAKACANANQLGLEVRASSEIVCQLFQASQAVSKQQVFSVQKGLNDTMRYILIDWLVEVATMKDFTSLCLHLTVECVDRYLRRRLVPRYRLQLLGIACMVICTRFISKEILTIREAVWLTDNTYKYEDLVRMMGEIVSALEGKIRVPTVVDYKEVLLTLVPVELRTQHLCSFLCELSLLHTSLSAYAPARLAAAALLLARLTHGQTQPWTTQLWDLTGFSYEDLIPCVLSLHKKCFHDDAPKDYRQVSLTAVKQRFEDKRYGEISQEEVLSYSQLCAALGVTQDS
Variant	normalised enrichment score
TSVRCALFTGGSD [R5C]	1.86
TSVRRHLFTGGSD [A6H]	4.77
TSVRRAMFTGGSD [L7M]	0.628
TSVRRALFTGISD [G11I]	8.28
TYVRRALFTGGSD [S2Y]	7.55
TSVRRALTTGGSD [F8T]	0.195
THVRRALFTGGSD [S2H]	8.32
TSVRRALFTGFSD [G11F]	8.83
TSVRRALFTGLSD [G11L]	8.34
TSVRRALFTLGSD [G10L]	8.67
TSVRRYLFTGGSD [A6Y]	3.64
TSVRRARFTGGSD [L7R]	0.664
TSVRRALFTGGMD [S12M]	8.24

Study 2 — method: protein binding microarray; molecule type: double-stranded DNA, one strand shown; sample: in vitro; concentration: not given; relative to: not given; reading: higher = stronger binding
Target: Histone acetyltransferase KAT6A, winged helix 2, GST fusion (KAT6A, Homo sapiens, UniProt Q92794, residues 85-181)
Notes: 8-mer, flanks averaged, mean of 2 arrays, mostly near background
Construct (chain): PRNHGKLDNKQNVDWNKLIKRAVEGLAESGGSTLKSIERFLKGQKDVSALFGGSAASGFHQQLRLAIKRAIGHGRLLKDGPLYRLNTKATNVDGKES
Sequence	E-score
GCAGGAGA	0.128
ATAGCCCC	-0.196
AATAACAA	0.0459
CGCTACCC	-0.0941
CGTCTGGC	0.021
CAGTACTC	-0.184
ACTAGCCG	0.0782
TCACGGAA	-0.061

Study 3 — method: RNA Bind-n-Seq; molecule type: RNA; sample: in vitro; concentration: 20 nM; notes: 6-mer, flanks averaged, single round; added: 150 mM LiCl; relative to: input library; reading: higher = stronger binding
Target: TAR DNA-binding protein 43, full length, His tag (TARDBP, Homo sapiens, UniProt Q13148, residues 1-414)
Sequence	6-mer enrichment (R)
CCUUAU	1.03
CCUAUA	0.924
CAUCAG	0.8
AUGGAG	1.1
GUGCUU	1.14
CCGUAU	0.932
GAGGCG	1.14
UAUUAU	1.11

Further values, each from its own experiment
FOXP2 N-truncated, polyQ removed: Forkhead box protein P2, N-truncated, polyQ removed (FOXP2, Homo sapiens, UniProt O15409, residues 214-715)
Chain of UniProt O15409 (214-715, unmodified, looked up): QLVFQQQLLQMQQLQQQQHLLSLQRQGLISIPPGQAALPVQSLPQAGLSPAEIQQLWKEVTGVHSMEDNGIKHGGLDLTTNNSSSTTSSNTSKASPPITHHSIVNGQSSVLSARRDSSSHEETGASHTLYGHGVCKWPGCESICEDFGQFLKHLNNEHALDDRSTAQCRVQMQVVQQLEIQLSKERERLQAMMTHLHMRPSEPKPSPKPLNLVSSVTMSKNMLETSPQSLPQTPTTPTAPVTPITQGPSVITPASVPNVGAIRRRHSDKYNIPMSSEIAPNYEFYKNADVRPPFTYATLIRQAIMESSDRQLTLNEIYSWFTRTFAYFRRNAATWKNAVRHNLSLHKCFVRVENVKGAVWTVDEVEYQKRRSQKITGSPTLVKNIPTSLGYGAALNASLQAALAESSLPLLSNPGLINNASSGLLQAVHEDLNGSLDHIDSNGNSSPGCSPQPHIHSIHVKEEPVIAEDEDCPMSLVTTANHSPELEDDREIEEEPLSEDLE
Molecule	target	assay	test system	conditions	scale	measurement	result
CGCCTGTTACGGCATCAGGGCTTTGGTTTGGGATGGCTGCTCGTTTACCAATTGTTCCGGCGGTATGAC	FOXP2 N-truncated, polyQ removed	MITOMI	double-stranded DNA, one strand shown, in vitro	not given, 69-bp whole dsDNA, apparent Ka, titration fit	relative to: unmutated reference site, higher = stronger binding	relative association constant	0.0128 fold
PhoQ, residues 284 288 289 292 302 303 AEGLLW	PhoP, residues 12 14 15 18 19 NMSSL (Escherichia coli, UniProt P23836)	Sort-seq, refers to: YFP reporter	E. coli	PhoQ-PhoP variant library, added: 10 µM Mg2+	relative to: high Mg2+ state, higher = stronger signaling	fold induction	9.42
CGCCTGTTACGGCATCAGGGCTTTGGTTTGGGATGGCTGCTTGTTTAGCAATTGTTCCGGCGGTATGAC	FOXP2 N-truncated, polyQ removed	MITOMI	double-stranded DNA, one strand shown, in vitro	not given, 69-bp whole dsDNA, apparent Ka, titration fit	relative to: unmutated reference site, higher = stronger binding	relative association constant	0.0664 fold

A few entries again (study 2):
Sequence	E-score
ATAGCCCC	-0.196
ACTAGCCG	0.0782
GCAGGAGA	0.128
